Assay results from different studies.
Every numbered part comes from another study and shows a few of its results, in no order. “And” joins repeats or separate records; there may be more than shown.
Chain of UniProt Q5S007 (whole entry, looked up): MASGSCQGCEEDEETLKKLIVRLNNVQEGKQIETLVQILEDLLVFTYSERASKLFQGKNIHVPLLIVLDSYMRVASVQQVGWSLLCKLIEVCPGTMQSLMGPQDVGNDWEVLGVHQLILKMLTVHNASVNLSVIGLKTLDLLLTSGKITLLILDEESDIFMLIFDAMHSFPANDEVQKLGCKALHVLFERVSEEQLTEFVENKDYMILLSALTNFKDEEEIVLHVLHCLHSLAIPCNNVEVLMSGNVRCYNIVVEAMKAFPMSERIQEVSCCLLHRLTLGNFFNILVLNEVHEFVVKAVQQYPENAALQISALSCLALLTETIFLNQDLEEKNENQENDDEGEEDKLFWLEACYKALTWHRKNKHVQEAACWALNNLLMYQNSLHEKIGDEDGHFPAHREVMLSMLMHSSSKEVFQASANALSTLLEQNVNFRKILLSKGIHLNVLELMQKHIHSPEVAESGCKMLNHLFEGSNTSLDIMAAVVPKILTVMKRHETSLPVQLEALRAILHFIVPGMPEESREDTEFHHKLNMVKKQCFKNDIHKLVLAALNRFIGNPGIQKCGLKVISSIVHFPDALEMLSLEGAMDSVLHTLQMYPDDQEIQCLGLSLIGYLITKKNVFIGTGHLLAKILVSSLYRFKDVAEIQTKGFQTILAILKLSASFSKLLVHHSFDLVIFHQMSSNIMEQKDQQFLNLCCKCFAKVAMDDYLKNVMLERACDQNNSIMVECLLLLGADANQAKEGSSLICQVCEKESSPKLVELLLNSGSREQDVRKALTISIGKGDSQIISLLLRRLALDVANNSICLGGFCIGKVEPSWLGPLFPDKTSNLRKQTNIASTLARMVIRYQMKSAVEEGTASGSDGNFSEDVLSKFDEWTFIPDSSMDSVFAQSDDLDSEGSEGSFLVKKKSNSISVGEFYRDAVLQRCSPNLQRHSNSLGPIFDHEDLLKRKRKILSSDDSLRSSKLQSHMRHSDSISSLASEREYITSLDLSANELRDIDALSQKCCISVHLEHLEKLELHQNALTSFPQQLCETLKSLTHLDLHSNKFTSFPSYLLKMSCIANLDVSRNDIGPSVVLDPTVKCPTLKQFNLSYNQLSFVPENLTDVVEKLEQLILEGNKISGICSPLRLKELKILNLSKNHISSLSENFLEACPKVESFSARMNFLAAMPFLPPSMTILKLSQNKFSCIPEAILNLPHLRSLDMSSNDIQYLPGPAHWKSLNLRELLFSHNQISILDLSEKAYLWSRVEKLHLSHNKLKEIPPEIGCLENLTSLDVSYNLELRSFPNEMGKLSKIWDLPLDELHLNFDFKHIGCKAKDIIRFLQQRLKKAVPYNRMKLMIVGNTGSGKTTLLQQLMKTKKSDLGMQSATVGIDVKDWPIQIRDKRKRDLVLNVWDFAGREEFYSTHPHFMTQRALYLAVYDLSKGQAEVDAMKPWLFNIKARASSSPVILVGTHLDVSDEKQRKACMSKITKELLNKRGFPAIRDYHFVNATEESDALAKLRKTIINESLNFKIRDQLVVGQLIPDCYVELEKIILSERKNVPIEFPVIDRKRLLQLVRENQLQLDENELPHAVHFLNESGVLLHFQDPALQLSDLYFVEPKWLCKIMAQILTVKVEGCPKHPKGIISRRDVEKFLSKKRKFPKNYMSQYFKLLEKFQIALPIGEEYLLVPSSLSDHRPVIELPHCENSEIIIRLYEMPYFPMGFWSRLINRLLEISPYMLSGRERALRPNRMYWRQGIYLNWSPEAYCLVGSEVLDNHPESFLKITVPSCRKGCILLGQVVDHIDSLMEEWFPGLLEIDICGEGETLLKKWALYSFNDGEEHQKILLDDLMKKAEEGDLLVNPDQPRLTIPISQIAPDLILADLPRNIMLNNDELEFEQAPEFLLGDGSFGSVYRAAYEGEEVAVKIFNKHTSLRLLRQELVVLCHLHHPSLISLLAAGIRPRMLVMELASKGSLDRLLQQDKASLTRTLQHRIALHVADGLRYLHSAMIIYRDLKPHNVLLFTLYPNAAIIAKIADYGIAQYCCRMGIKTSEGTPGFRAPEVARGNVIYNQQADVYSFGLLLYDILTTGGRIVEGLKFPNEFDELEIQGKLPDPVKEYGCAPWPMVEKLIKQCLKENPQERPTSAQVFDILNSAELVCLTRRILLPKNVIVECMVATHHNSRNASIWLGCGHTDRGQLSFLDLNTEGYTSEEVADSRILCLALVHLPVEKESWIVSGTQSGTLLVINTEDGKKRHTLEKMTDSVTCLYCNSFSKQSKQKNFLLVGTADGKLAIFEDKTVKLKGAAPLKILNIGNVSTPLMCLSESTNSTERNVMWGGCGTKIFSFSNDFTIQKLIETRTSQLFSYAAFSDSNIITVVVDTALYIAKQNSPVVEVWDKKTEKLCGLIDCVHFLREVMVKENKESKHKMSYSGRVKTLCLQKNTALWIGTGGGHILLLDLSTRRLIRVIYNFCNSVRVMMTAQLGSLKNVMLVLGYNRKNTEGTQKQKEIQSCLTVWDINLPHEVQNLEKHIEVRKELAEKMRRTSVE
Chain of UniProt O15530 (whole entry, looked up): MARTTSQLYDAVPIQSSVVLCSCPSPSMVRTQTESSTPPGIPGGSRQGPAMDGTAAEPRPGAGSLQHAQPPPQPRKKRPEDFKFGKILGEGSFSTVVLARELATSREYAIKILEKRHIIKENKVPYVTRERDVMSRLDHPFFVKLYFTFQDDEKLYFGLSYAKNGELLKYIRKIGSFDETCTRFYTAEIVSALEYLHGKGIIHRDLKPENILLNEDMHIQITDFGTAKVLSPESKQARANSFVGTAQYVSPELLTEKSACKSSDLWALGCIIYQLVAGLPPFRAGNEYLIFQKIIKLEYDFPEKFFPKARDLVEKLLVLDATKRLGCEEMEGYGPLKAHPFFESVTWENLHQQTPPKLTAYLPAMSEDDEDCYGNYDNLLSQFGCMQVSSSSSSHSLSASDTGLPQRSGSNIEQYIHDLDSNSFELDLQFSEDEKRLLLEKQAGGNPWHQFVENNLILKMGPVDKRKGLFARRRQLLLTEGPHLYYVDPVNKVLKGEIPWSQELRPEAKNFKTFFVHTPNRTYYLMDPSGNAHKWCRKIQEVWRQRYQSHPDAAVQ
Chain of UniProt Q14164 (whole entry, looked up): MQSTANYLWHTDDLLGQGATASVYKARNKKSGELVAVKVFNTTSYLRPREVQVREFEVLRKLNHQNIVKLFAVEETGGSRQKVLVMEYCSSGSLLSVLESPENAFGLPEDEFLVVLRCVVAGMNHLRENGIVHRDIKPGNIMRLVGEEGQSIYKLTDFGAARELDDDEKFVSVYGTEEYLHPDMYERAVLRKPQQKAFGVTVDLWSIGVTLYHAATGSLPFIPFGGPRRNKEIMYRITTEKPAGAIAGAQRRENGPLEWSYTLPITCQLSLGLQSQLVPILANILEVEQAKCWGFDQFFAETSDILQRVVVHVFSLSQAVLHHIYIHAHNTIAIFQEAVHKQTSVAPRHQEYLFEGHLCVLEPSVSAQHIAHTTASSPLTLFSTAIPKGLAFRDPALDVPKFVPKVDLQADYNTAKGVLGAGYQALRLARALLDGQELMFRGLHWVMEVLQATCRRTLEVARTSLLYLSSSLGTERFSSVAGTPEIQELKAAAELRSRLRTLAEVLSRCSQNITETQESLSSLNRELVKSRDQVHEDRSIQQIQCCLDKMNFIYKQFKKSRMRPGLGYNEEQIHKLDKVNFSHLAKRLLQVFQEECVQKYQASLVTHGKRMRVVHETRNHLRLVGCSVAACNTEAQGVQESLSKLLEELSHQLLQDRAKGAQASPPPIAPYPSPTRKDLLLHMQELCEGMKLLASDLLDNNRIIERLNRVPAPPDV
Chain of UniProt Q13555 (whole entry, looked up): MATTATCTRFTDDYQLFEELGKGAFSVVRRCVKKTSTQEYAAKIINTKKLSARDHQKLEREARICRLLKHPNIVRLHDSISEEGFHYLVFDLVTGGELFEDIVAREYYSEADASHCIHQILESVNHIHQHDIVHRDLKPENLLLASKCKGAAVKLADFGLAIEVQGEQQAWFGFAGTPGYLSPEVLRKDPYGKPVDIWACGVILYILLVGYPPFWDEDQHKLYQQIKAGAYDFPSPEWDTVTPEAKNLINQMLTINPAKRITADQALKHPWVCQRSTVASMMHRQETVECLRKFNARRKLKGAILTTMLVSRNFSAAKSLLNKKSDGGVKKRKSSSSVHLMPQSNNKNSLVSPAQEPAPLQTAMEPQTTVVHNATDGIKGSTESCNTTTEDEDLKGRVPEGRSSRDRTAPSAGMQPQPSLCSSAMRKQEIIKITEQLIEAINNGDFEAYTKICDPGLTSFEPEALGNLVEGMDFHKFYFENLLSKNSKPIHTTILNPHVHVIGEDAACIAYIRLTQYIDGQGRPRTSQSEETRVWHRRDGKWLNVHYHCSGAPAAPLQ

Study 1
Target: Calcium/calmodulin-dependent protein kinase type II subunit alpha (CAMK2A, Homo sapiens, UniProt Q9UQM7)
Chain of UniProt Q9UQM7 (whole entry, looked up): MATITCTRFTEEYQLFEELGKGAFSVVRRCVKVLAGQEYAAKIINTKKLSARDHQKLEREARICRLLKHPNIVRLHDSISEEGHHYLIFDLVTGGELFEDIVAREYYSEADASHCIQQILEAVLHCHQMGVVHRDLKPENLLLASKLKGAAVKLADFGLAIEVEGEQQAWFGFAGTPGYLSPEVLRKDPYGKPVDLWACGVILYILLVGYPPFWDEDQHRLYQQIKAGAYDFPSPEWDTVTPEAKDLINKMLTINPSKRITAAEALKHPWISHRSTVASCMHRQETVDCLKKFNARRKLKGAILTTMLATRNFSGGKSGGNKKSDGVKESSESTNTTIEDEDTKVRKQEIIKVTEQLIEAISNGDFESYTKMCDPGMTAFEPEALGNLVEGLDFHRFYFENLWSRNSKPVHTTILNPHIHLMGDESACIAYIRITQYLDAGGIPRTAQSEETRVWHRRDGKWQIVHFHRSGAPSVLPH
Read-out: enzyme activity
Mode: inhibitor
Tested at: 10 µM
SMILES | inhibition
N[C@H]1CONC1=O | -11%
O=C1c2c(O)cccc2[C@@H]([C@@H]2O[C@H](CO)[C@@H](O)[C@H](O)[C@H]2O)c2cc(CO)cc(O)c21 | -9%
CCCCCCCCCCCCN1CCCCCC1=O | -1%
CC[C@@H](C)O | 31%
C=CC(=O)N1CCC[C@@H](n2nc(-c3ccc(Oc4ccccc4)cc3)c3c(N)ncnc32)C1 | -0.15%
COc1cc(NS(=O)(=O)c2ccc(N)cc2)ncn1 | -6%
COc1c2ccoc2c(OC)c2oc(=O)ccc12 | -3%
CCN(CC)CCNC(=O)c1cc(S(C)(=O)=O)ccc1OC | 3%
COc1cc([C@H]2Oc3cc([C@H]4Oc5cc(O)cc(O)c5C(=O)[C@@H]4O)ccc3O[C@@H]2CO)ccc1O | 0.31% and -0.07%

Study 2
SMILES: O=C1NC(=O)/C(=C/c2ccc3c(c2)OC(F)(F)O3)S1
Read-out: enzyme activity
Mode: inhibitor
Tested at: 0.5 µM
Baseline: control
target | remaining activity [%]
EPHB1 (Homo sapiens, UniProt P54762) | 95.6
PDPK1 (Homo sapiens, UniProt O15530) | 100
WNK3 (Homo sapiens, UniProt Q9BYP7) | 91.5
CAMK2B (Homo sapiens, UniProt Q13554) | 99.8
STK17A (Homo sapiens, UniProt Q9UEE5) | 90.4
DYRK3 (Homo sapiens, UniProt O43781) | 100
Cyclin-dependent kinase 6, with cyclin D3 (CDK6, Homo sapiens, UniProt Q00534) | 92.6
Cyclin-dependent kinase 1, with cyclin B (CDK1, Homo sapiens, UniProt P06493) | 99.6
AXL (Homo sapiens, UniProt P30530) | 107
HIPK2 (Homo sapiens, UniProt Q9H2X6) | 104
BLK (Homo sapiens, UniProt P51451) | 99.2

Study 3
Structure (SMILES): CC1=C(C#N)[C@@H](c2ccc3[nH]nc(C)c3c2)C(C#N)=C(c2ccc(Cl)cc2)N1
Read-out: cell-free assay
Method: competition with immobilised ligand
Tested at: 1 µM
target | remaining binding [%]
COQ8A (Homo sapiens, UniProt Q8NI60) | 97.8
TRPM6 (Homo sapiens, UniProt Q9BX84) | 100
CAMK2G (Homo sapiens, UniProt Q13555) | 100
CAMK1G (Homo sapiens, UniProt Q96NX5) | 100
LRRK2 (Homo sapiens, UniProt Q5S007) | 91.7
TGFBR1 (Homo sapiens, UniProt P36897) | 62.4
CSNK1G3 (Homo sapiens, UniProt Q9Y6M4) | 100
NEK2 (Homo sapiens, UniProt P51955) | 100
MYLK3 (Homo sapiens, UniProt Q32MK0) | 100
MAP3K12 (Homo sapiens, UniProt Q12852) | 72.2
PLK4 (Homo sapiens, UniProt O00444) | 100
CAMK1D (Homo sapiens, UniProt Q8IU85) | 100
PIK3C2G (Homo sapiens, UniProt O75747) | 93.9
NTRK3 (Homo sapiens, UniProt Q16288) | 100
PIP5K1C (Homo sapiens, UniProt O60331) | 99.5
BRSK2 (Homo sapiens, UniProt Q8IWQ3) | 100
Mast/stem cell growth factor receptor Kit, autoinhibited (KIT, Homo sapiens, UniProt P10721) | 71.2
EPHA4 (Homo sapiens, UniProt P54764) | 96.4
PDGFRA (Homo sapiens, UniProt P16234) | 100

Study 4
SMILES: CC(C)S(=O)(=O)c1ccc2nccc(Nc3ccc4sc(C5CCCC5)nc4c3)c2c1
Read-out: kinase activity
Mode: inhibitor
Tested at: 1 µM
target | remaining activity
STK26 (Homo sapiens, UniProt Q9P289) | 83.5%
IKBKE (Homo sapiens, UniProt Q14164) | 110%
LRRK2 (Homo sapiens, UniProt Q5S007) | 116%
CLK3 (Homo sapiens, UniProt P49761) | 108%
NUAK2 (Homo sapiens, UniProt Q9H093) | 118%

Excerpt of the above (study 4):
target | remaining activity
CLK3 (Homo sapiens, UniProt P49761) | 108%
NUAK2 (Homo sapiens, UniProt Q9H093) | 118%
IKBKE (Homo sapiens, UniProt Q14164) | 110%
STK26 (Homo sapiens, UniProt Q9P289) | 83.5%
LRRK2 (Homo sapiens, UniProt Q5S007) | 116%
